# Measured values collected from several papers.
# Lines come from different studies, so protocols differ. ± gives the spread as reported.
SMILES,assay,system,setting,how to read,endpoint,result
C=CC(=O)Nc1cc(Nc2nccc(-c3cn(C)c4ccccc34)n2)c(OC)cc1N(C)CCN(C)C,population PK model,human patients,,,apparent clearance (CL/F),14.3 L/h
CC[C@@H]1CN(C(=O)NCC(F)(F)F)C[C@@H]1c1cnc2cnc3[nH]ccc3n12,population PK modelling,human,"oral, dose not given, final model, outliers re-estimated",,apparent central volume (Vc/F),156 L
Cc1cc(C)c(CNC(=O)c2cc(Cl)c3c(c2C)O[C@@](C)([C@H]2CC[C@H](N(C)C)CC2)O3)c(=O)[nH]1,population PK model,human,"oral, dose not given",,apparent central volume,42.5 L
N[C@@H]1c2cccnc2[C@H](OC(=O)N2CCC(n3c(=O)[nH]c4ncccc43)CC2)CC[C@H]1c1cccc(F)c1F,population PK model,human,"oral, dose not given",,apparent central volume,114 L
NC(=O)N1c2ccccc2CC(=O)c2ccccc21,population PK modelling,"human patients, plasma","oral, weight-scaled, no back-conversion",,apparent clearance,133 L/h
CC(=O)N(C)[C@H]1CCN(C(=O)c2cnc3c(c2)C[C@](C)(c2ccc(F)cc2)N3)C1,,"healthy male human, plasma","oral, 15 mg once daily, steady state, geometric mean",,apparent oral clearance,19.2 L/h
CNC(=O)c1c(C)oc2cc(Oc3ncnc4cc(OC)c(OC)cc34)ccc12,population PK base model,human,,,apparent clearance (CL/F),0.81 L/h
C[C@@H](Oc1ccc(S(C)(=O)=O)cc1C(=O)N1C[C@@H]2C[C@]2(c2cc(C(F)(F)F)on2)C1)C(F)(F)F,,"young humans, plasma","oral, 75 mg single dose, geometric mean",,apparent clearance (CL/F),4.3 L/h
COc1cc(Nc2ncc3c(n2)-c2ccc(Cl)cc2C(c2c(F)cccc2OC)=NC3)ccc1C(=O)O,population PK model,"human cancer patients, plasma",,,apparent clearance (CL/F),3.91 L/h
NC(N)=NCCC[C@@H](N)C(=O)N[C@@H](CCCN=C(N)N)C(=O)N1CCC[C@H]1C(=O)N1C[C@H](O)C[C@H]1C(=O)NCC(=O)N[C@@H](Cc1cccs1)C(=O)N[C@@H](CO)C(=O)N1Cc2ccccc2C[C@@H]1C(=O)N1[C@H](C(=O)N[C@@H](CCCN=C(N)N)C(=O)O)C[C@@H]2CCCC[C@@H]21,popPK base model typical value,human,"subcutaneous, reference weight 70 kg",,apparent clearance (CL/F),14 L/h
C=CC(=O)Nc1cc(Nc2ncc(C(=O)OC(C)C)c(-c3cn(C)c4ccccc34)n2)c(OC)cc1N(C)CCN(C)C,,healthy human volunteers,"oral, dose not given, capsule C vs capsules A and B",,apparent central volume,2400 L
Cc1c(OCC(F)(F)F)ccnc1C[S+]([O-])c1nc2ccccc2[nH]1 (centres unmarked),,"human, plasma","oral, median",,apparent oral clearance,12.4 L/h
NCC(=O)Nc1cncc(-c2nn3c(=O)cc(N4CCNCC4)nc3s2)c1,population PK model,human,"subcutaneous, dose not given, geometric mean",,apparent central volume (Vc/F),50.7 L
Cc1nc(Nc2ncc(C(=O)Nc3c(C)cccc3Cl)s2)cc(N2CCN(CCO)CC2)n1,,"human patients, plasma","65 mg/m^2, day 8",,apparent oral clearance,2240 ± 871 mL/min/m²
CNC(=O)c1ccc(N2C(=S)N(c3ccc(C#N)c(C(F)(F)F)c3)C(=O)C2(C)C)cc1F,population PK base model,human,,,apparent clearance,0.43 L/h
CCCOc1ccc([C@H]2CNC(=O)N2c2ccc3[nH]cnc3c2)cc1,,"human volunteers fasted, plasma","oral tablet, 200 mg single dose, crossover, geometric mean",,apparent terminal half-life,3.57 h
C[C@@]1(c2cc(NC(=O)c3ccc(C#N)cn3)ccc2F)C=CSC(N)=N1,,"elderly humans, both sexes, plasma","oral, 3 mg single dose, mean",,apparent clearance CL/F,12 L/h
Cn1cc(-c2cn3nccc3c(-c3cnn([C@]4(CC#N)C[C@@H](C#N)C4)c3)n2)cn1,,"healthy humans fasted, plasma","30 mg single dose, geometric mean",,apparent clearance CL/F,35.4 L/h
C[C@@H]1CCO[C@H]2Cn3cc(C(=O)NCc4ccc(F)cc4F)c(=O)c(O)c3C(=O)N12,population PK model,"paediatric humans, plasma","oral, dose not given",,apparent volume of distribution,13.6 L
CCn1c(=O)c(-c2cc(NC(=O)Nc3ccccc3)c(F)cc2Br)cc2cnc(NC)cc21,,"human, plasma","oral, 150 mg once daily, steady state",,apparent clearance CL/F,13.5 L/h
Cl.[2H]C([2H])([2H])CC(=O)c1cnc(NC(=O)C2CC2)cc1Nc1cccc(-c2ncn(C([2H])([2H])[2H])n2)c1OC,,"human, non-fasted","oral, 60 mg once daily, day 14, multiple dose, tablet, geometric mean",,apparent volume at steady state,203 L
COc1cc2c(Nc3ccc(Br)cc3F)ncnc2cc1OCC1CCN(C)CC1,,"human patients, plasma","85 mg/m^2, day 42",,apparent oral clearance,93 ± 36 mL/min/m²
O=C(Nc1nc2cccc(-c3ccc(CN4CCS(=O)(=O)CC4)cc3)n2n1)C1CC1,population PK model estimate,human,"oral, dose not given",,apparent peripheral volume,34.3 L
COc1ccc(-n2nc(C(N)=O)c3c2C(=O)N(c2ccc(N4CCCCC4=O)cc2)CC3)cc1,,"human, plasma","oral, dose not given, Final population PK model",,apparent peripheral volume,23.9 ± 1.81 L
C#C[C@]1(CO)O[C@@H](n2cnc3c(N)nc(F)nc32)C[C@@H]1O,,"human, plasma","oral, 30 mg single dose, fed",,apparent volume of distribution (Vz/F),2230 L
COC(=O)N[C@@H](C)CNc1nccc(-c2cn(C(C)C)nc2-c2cc(Cl)cc(NS(C)(=O)=O)c2F)n1,,"human, plasma","oral, 50 mg, together with: posaconazole 400 mg twice daily",arithmetic mean,apparent volume Vz/F,95.6 ± 49.8 L
C[C@H](Cn1cnc2c(N)ncnc21)OCP(=O)(O)O,population PK model,"human, plasma","oral, dose not given, simultaneous model bootstrap median",,apparent volume of distribution,2380 L
COc1cc(C(=O)NC2CCN(C)CC2)c(F)cc1Nc1ncc(C(F)(F)F)c(Oc2cccc3c2C(=O)N(C)C3)n1,,"human patients, plasma","oral, 10 mg single dose, geometric mean",,apparent oral clearance CL/F,537 mL/min
CC(C)(C)OC[C@@H]1C(=O)NCCN1C(=O)C[C@H](N)Cc1cc(F)c(F)cc1F,,"human, plasma","oral, dose not given, 2, compound alone",,apparent oral clearance at steady state,55.1 ± 5.46 L/h
NC(=S)NN=Cc1ncccc1N,,"human non-smokers, plasma","oral, geometric mean, total",,apparent oral clearance,88 L/h
C=C[C@@H]1C[C@]1(NC(=O)[C@@H]1C[C@@H](Oc2ncc(OC)c3ccc(Cl)cc23)CN1C(=O)[C@@H](NC(=O)OC(C)(C)C)C(C)(C)C)C(=O)NS(=O)(=O)C1CC1,population PK base model,human,"oral, dose not given",,apparent volume of distribution,55 L
C=CC(=O)N(C)CCOc1c(N)ncnc1-c1cc(F)cc(NC(=O)c2ccc(C3CC3)cc2F)c1C,,"human, whole blood","oral, 30 mg, single ascending dose",,apparent clearance CL/F,523 L/h
NC[C@@]1(CC(=O)O)[C@@H]2CC[C@H]3C[C@@H]2[C@@H]1C3,,"human, severe renal impairment, plasma","oral, 20 mg single dose, geometric mean",,apparent clearance,3 L/h
[H]/N=C(/N)c1ccc(NCc2nc3cc(C(=O)N(CCC(=O)O)c4ccccn4)ccc3n2C)cc1,,"healthy humans, plasma","oral, 75 mg, alone, geometric mean",,apparent volume of distribution,1960 L
O=C(O)CCC(=O)O.[2H]C([2H])([2H])Oc1cc(C)c2[nH]ccc2c1CN1CC[C@@H](C2CC2)C[C@H]1c1ccc(C(=O)O)cc1,,"healthy humans, fed","oral, 200 mg, single dose, high-fat meal",,apparent volume of distribution (Vd/F),66 L
